Published values of several laboratories.
Protocols differ between the studies behind these lines.
Observed: chemical stability

The half-life of `C[C@@H](O)[C@H](NC(=O)OP(=O)(O)OC[C@H]1O[C@@H](n2cnc3c(N)ncnc32)[C@H](O)[C@@H]1O)C(=O)O` is reported as 9.4 min (HPLC; aqueous buffer; 10 µM, pH 7.5).
For `CC(=O)O[C@@H]1CC[C@@]2(C)C(CC[C@]3(C)C2C(=O)C=C2C4[C@@H](C)[C@H](C)CC[C@]4(C)CC[C@]23C)[C@@]1(C)C(=O)N/N=C1/C(=O)Nc2ccccc21` (stereo partly shown), the half-life was 6620 min (HPLC; aqueous buffer; 75 µM, pH 7.4).
For `OB(O)c1sccc1/C=N/OCc1ccccc1`, the half-life was 120 min (PBS; 80 µM, pH 7.4).
`CCN(c1nc(N[C@H](CC(N)=O)C(=O)NC)nc(N2CCN(c3ccccc3C#N)CC2)n1)C1CCCCC1` gave a half-life of over 240 min (PBS).
The half-life of `Cn1nnc2c(C#N)ncn2c1=O` is reported as 30 min (HPLC; PBS; pH 7.4).
For `CO[C@@H](C[C@H]1C(C)=CC[C@@H]2[C@]3(C)C[C@H](O[C@@H]4O[C@@H](C)[C@H](O)[C@@H](O)[C@H]4O)[C@@H](O)C(C)(C)[C@H]3CC[C@]21C)[C@H](N)C(=O)O`, the half-life was over 480 min (simulated intestinal fluid; 1 µM, pH 6.8).
The half-life of `CCCC[N+](CCCC)(CCOCCOCCO[C@@H]1O[C@H](CO)[C@@H](O)[C@H](O)[C@H]1O)C[B-](F)(F)F` is reported as 4320 min (NMR; aqueous buffer; 2 mg/mL, pH 7.5).
`CC(=O)O[C@@H]1CC[C@@]2(C)C(CC[C@]3(C)C2C(=O)C=C2C4[C@@H](C)[C@H](C)CC[C@]4(C)CC[C@]23C)[C@@]1(C)C(=O)OCC(=O)Oc1cc(C)ccc1C(C)C` (stereo partly shown) has a half-life of 1250 min (HPLC; aqueous buffer; 75 µM, pH 7.4).
With `OC[C@H]1O[C@@H](OCCOCCOCC[N+]2(C[B-](F)(F)F)CCCCC2)[C@H](O)[C@@H](O)[C@@H]1O` the half-life was 1440 min (NMR; aqueous buffer; 2 mg/mL, pH 7.5).
With `CCOC(=O)CCC(=O)Oc1ccc(/C=C/C(=O)/C=C(O)/C=C/c2ccc(OC(=O)CCC(=O)OCC)c(OC)c2)cc1OC` the half-life was 499 min (aqueous buffer; pH 7.4).

A few entries again:
The half-life of `CCCC[N+](CCCC)(CCOCCOCCO[C@@H]1O[C@H](CO)[C@@H](O)[C@H](O)[C@H]1O)C[B-](F)(F)F` is reported as 4320 min (NMR; aqueous buffer; 2 mg/mL, pH 7.5).
